Assay results from different studies.
Parts stem from different laboratories: compare values within a part only. Several values in a cell are separate wells, animals, samples, runs or records. Positions count from the first letter of the parent shown.

Sample 1
Target: OGT, full length, His-tagged (human)
Method: phage display, sequencing
Medium: in vitro
Concentration: 1 µg OGT
Notes: single substitutions, 15-mer displayed peptide, unchanged parent 16.7
Baseline: input library
Direction: higher = stronger binding
Starting sequence: peptide; NSEYMPQYQIIFAHQ
For `Q7P`, the fold enrichment was 0.742 fold.
The fold enrichment of `S2M` is reported as 12.3 fold.
With `Q9F` the fold enrichment was 4.08 fold.
`S2H` has a fold enrichment of 17.5 fold.
With `F12L` the fold enrichment was 4.95 fold.
`Q15L` gave a fold enrichment of 10.2 fold.
`Y8W` gave a fold enrichment of 1.46 fold.
The fold enrichment of `H14D` is reported as 4.93 fold.

Sample 2
Target: Centromere-binding protein 1, full length, N-terminal tag (CBF1, Saccharomyces cerevisiae, UniProt P17106, residues 1-351)
Chain of UniProt P17106 (whole entry, looked up): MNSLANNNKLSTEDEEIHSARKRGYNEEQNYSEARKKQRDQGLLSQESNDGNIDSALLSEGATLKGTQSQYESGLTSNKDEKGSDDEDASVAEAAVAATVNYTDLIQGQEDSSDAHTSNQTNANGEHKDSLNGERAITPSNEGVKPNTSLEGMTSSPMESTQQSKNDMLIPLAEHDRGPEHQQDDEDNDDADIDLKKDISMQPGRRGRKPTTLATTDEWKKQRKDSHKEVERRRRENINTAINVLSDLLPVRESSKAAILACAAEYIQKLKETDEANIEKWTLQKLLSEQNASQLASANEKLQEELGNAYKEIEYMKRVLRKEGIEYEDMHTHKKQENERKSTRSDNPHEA
Method: protein-binding microarray
Molecule type: double-stranded DNA, one strand shown
Medium: in vitro
Concentration: 0.8 µM
Notes: whole 60-bp probe, no competitor
Direction: higher = stronger binding
Shared flanks, not repeated: … GTCTTGATTCGCTTGACGCTGCTG
With `CTAATAACTTCCATTCGGGTGATACCTGCAATATTC` the fluorescence intensity was 543 a.u.
For `GAAGCGGACCAAGATCACGTACCATGTGCAGAATAG`, the fluorescence intensity was 1250 a.u.
With `GAATCTTCTTTTTAGCATGTGCTGTAATTTGGCTAG` the fluorescence intensity was 929 a.u.
`GAACTTCATTTTCTTCACGCGCCATACTCGGATTAG` gave a fluorescence intensity of 625 a.u.
For `CTAGCACCTTGTCGTCATGAGACCCATTTCGTATTC`, the fluorescence intensity was 699 a.u.
The fluorescence intensity of `GAAAATCACAAGGATCAGGAGGAAAAGAAAAAATAG` is reported as 610 a.u.
The fluorescence intensity of `GAACTTCCCCTTTTAAACATGACTGAATTTTGGTAG` is reported as 538 a.u.
The fluorescence intensity of `GAAATTCCAGCACCACTCGTGCAAGACGTACCATAG` is reported as 539 a.u.

Sample 3
Target: Serine/threonine-protein kinase B-raf (BRAF, Homo sapiens, UniProt P15056)
Chain of UniProt P15056 (whole entry, looked up): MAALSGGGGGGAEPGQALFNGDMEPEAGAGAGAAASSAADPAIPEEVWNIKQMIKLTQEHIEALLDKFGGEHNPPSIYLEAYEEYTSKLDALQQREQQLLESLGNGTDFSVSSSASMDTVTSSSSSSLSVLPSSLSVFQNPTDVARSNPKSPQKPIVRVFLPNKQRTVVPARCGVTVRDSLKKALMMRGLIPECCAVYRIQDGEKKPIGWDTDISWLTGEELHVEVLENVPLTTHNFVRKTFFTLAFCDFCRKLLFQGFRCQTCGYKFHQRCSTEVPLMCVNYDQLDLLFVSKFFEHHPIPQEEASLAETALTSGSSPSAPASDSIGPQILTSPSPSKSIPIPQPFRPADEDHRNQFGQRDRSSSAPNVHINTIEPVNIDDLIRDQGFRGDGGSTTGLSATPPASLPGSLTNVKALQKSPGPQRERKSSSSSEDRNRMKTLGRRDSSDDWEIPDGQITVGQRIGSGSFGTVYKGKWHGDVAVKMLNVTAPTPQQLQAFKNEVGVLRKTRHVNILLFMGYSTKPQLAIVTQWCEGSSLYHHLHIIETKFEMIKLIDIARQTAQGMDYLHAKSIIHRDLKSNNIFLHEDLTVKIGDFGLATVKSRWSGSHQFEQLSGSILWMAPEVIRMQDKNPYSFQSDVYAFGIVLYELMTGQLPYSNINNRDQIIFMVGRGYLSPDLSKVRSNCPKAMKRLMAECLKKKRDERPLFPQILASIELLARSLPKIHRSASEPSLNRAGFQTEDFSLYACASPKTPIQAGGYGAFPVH
Read-out: enzyme activity
Action: inhibitor
Concentration: 0.5 µM
Baseline: control
FC(F)(F)c1ccc(/C=C/c2nc(COc3ccc(CCCCn4ccnn4)cc3)co2)cc1 gave a remaining activity of 94.3%.
O=Nc1c(-c2c(O)[nH]c3ccccc23)[nH]c2ccccc12 has a remaining activity of 105%.
With c1cc(-c2cnn3cc(-c4ccc(OCCN5CCCCC5)cc4)cnc23)ccn1 the remaining activity was 93.3%.
Clc1ccc(Nc2nnc(Cc3ccncc3)c3ccccc23)cc1 gave a remaining activity of 92.2%.

Further values, each from its own experiment
`PhoQ, residues 284 288 289 292 302 303 SVTLVV` gave a fold induction of 4.9 (PhoP, residues 12 14 15 18 19 NHFIF (Escherichia coli, UniProt P23836); Sort-seq, measured: YFP reporter; E. coli; PhoQ-PhoP variant library, together with: 10 µM Mg2+; baseline: high Mg2+ state, higher = stronger signaling).
C[C@H](NC(=O)c1cnc2n1[C@](C)(Cc1ccc(C#N)cc1)C(=O)N2c1cc(Cl)c(F)c(Cl)c1)C(=O)NC1(c2ccccn2)CC1 gave a viability of 102% and 94.8% (normal organoid sample D; CellTiter-Glo; human; 1 µM, 4 days; baseline: DMSO).

Excerpt of the above (sample 2):
For `CTAGCACCTTGTCGTCATGAGACCCATTTCGTATTC`, the fluorescence intensity was 699 a.u.
The fluorescence intensity of `GAAAATCACAAGGATCAGGAGGAAAAGAAAAAATAG` is reported as 610 a.u.
The fluorescence intensity of `GAACTTCCCCTTTTAAACATGACTGAATTTTGGTAG` is reported as 538 a.u.
The fluorescence intensity of `GAAATTCCAGCACCACTCGTGCAAGACGTACCATAG` is reported as 539 a.u.
